Experimental data collected from several papers.
Every numbered part comes from another study and shows a few of its results, in no order.

Sample 1
Target: Fragile X messenger ribonucleoprotein 1, C-terminal low-complexity region (Fmr1, Mus musculus, UniProt P35922)
Technique: RNA Bind-n-Seq
Form: RNA
Matrix: in vitro
Concentration: 200 nM
Setting: whole 134-nt RNA, ends assumed
Added: 150 mM LiCl
Relative to: input library
Reading: higher = stronger binding
Library: 7-deaza-guanosine replaces G
`GGGAGUUCUACAGUCCGACGAUCGUCCUGUGCUACACAUCGUAUGUACCGAAUCGGGGUUUUUUGGUUUUUUGGUUUUUUGGAAAGUAUUAUGUUACGCCGUUCGGAUCUGCAUGGAAUUCUCGGGUGUCAAGG` has a log2 enrichment of -1.49.
With `GGGAGUUCUACAGUCCGACGAUCUAACUUUAGAGGAGGAUCUGAAGGAUAUGGCAGUGGACGUGGAUUUGGGGAUGGCUAUAAUGGGUAUGGAGGAGGACCUGGAGGUGGCAAUGGAAUUCUCGGGUGUCAAGG` the log2 enrichment was 0.000729.
The log2 enrichment of `GGGAGUUCUACAGUCCGACGAUCCAAGUCCUGUGCUACACAUCGUAUGUACCGAAUCGGGUUUGGGAAAGGGAAAGGGAAAGUAUUAUGUUACGCCGUUCGGAUCUGCACUUCUGGAAUUCUCGGGUGUCAAGG` is reported as -0.449.
For `GGGAGUUCUACAGUCCGACGAUCCCUGUGCUACACAUCGUAUGUACCGAAUCGGGGCCCCCCGGCCCCCCGGGCCCCCCGGGGAAAGUAUUAUGUUACGCCGUUCGGAUCUGCUGGAAUUCUCGGGUGUCAAGG`, the log2 enrichment was -0.924.

Sample 2
Target: Interferon regulatory factor 7, full length, phosphomimetic (IRF7, Homo sapiens, UniProt Q92985, residues 1-503, S471D/S472D/S475D/S476D/S477D/S483D/S484D/S487D)
Technique: protein-binding microarray
Form: double-stranded DNA, one strand shown
Matrix: in vitro
Concentration: 2200 nM top
Setting: 60-bp whole probe
Added: salmon DNA 0.4 mg/ml
Relative to: random background probes
Reading: higher = stronger binding
All sequences stand within: GCCTAGCAC … GTGCTAGGTCTTGATTCGCTTGACGCTGCTG
Construct (chain): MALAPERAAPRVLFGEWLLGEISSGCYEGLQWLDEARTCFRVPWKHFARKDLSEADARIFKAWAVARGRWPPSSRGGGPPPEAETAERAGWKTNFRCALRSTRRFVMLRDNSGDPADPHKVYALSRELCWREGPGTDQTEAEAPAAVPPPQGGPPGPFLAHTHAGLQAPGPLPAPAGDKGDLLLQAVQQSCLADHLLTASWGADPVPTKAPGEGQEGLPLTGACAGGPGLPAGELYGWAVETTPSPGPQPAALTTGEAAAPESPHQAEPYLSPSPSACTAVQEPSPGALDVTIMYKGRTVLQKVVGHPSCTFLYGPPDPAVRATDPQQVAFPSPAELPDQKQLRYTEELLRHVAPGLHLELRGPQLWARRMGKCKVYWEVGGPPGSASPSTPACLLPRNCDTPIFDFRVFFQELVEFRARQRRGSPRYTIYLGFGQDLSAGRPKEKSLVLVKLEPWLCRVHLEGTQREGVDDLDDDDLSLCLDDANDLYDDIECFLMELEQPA
`GACGAACTGAGTTACGAGAC`: “fitted relative affinity” -0.183 z-score.
`TTAGATCGCAGTATCGATTA` — result for “fitted relative affinity”: -0.0996 z-score.
`TTAGATTTCAGACTGGGTTA` — result for “fitted relative affinity”: 0.27 z-score.
Under “fitted relative affinity”, `GCCGGTCTCGGACTGGGGAC` is recorded as -0.476 z-score.
Under “fitted relative affinity”, `TTAGAACTGAATTTCGATTA` is recorded as 1.82 z-score.

Sample 3
Target: Transcription factor Sp1 (SP1, Homo sapiens, UniProt P08047, residues 1-785, full length assumed)
UniProt P08047, sequence (whole entry, looked up): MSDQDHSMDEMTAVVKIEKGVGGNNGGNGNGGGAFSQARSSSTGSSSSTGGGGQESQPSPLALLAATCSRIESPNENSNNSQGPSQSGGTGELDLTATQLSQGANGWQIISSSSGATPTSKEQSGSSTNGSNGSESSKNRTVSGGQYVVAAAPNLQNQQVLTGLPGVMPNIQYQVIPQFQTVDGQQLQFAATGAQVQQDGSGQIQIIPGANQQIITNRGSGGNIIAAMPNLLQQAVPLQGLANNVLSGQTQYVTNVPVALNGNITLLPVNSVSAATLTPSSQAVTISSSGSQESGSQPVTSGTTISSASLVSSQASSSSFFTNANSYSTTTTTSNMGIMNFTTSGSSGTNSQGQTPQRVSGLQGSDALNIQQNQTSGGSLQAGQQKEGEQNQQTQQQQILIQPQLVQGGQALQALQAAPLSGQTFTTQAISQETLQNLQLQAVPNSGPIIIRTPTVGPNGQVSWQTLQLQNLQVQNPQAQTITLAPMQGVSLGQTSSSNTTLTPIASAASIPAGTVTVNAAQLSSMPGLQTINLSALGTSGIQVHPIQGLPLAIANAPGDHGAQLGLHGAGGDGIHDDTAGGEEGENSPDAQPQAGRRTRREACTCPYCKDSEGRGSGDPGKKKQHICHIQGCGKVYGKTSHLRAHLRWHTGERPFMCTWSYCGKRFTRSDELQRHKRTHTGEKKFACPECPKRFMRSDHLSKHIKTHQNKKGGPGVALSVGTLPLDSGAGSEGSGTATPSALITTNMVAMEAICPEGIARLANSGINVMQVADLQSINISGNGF
Technique: protein-binding microarray
Form: double-stranded DNA, one strand shown
Matrix: in vitro
Concentration: not given
Setting: k-mer, scored over probes, only values ≥0.25
Reading: higher = stronger binding
`AACGCCCA` gave an E-score of 0.425.
`ATCCCACC` has an E-score of 0.363.
`TCCCCTAA` has an E-score of 0.324.
For `CCCCGCAC`, the E-score was 0.266.
With `ACATACGA` the E-score was 0.274.

Other studies, line by line
The fold induction of `PhoQ, residues 284 288 289 292 302 303 SLSLLA` is reported as 19.5 (PhoP, residues 12 14 15 18 19 FWNTL (Escherichia coli, UniProt P23836); Sort-seq, refers to: YFP reporter; E. coli; PhoQ-PhoP variant library, added: 10 µM Mg2+; relative to: high Mg2+ state, higher = stronger signaling).

A few entries again (sample 2):
`TTAGATCGCAGTATCGATTA` — result for “fitted relative affinity”: -0.0996 z-score.
